{"data": "Results collected from several papers", "note": "Numbered parts are unrelated; each lists some results of a single study."}
{"data": "Series 1", "target": "Interferon regulatory factor 7, full length, phosphomimetic (IRF7, Homo sapiens, UniProt Q92985, residues 1-503, S101K/S471D/S472D/S475D/S476D/S477D/S483D/S484D/S487D)", "method": "protein-binding microarray", "molecule type": "double-stranded DNA, one strand shown", "sample": "in vitro", "tested at": "250 nM", "notes": "60-bp whole probe", "added": "salmon DNA 0.4 mg/ml", "reference": "random background probes", "direction": "higher = stronger binding", "all sequences stand within": "GCCTAGCAC … GTCTTGATTCGCTTGACGCTGCTG", "chain of UniProt Q92985 (whole entry, unmodified, looked up)": "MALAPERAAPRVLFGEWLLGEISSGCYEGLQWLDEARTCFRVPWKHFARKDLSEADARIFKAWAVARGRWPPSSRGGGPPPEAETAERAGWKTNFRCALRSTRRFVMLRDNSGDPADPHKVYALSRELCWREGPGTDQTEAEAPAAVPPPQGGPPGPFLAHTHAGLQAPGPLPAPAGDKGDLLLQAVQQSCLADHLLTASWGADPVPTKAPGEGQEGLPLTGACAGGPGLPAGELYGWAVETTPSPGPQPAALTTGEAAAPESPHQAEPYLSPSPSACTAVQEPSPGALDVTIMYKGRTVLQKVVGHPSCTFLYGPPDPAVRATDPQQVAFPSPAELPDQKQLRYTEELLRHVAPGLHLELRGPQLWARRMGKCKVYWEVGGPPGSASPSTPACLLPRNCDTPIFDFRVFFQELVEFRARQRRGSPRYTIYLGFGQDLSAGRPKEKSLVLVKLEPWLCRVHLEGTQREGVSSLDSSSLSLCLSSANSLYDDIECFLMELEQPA"}
{"Oligonucleotide": "TCTCCTACAGGTTCTCTGAGAGTGCTA", "log fluorescence": "-0.0704 z-score"}
{"Oligonucleotide": "TTAGATACCAGACTGGATTAGTGCTAG", "log fluorescence": "0.333 z-score"}
{"Oligonucleotide": "GACGGACCGCTTTTCCTGACGTGCTAG", "log fluorescence": "0.878 z-score"}
{"Oligonucleotide": "GACGGTTTCCGACTGCTGACGTGCTAG", "log fluorescence": "1.66 z-score"}
{"Oligonucleotide": "GAGGGTGTTCTTTTCTGTTGGTGCTAG", "log fluorescence": "-0.512 z-score"}
{"Oligonucleotide": "TTAGATTTCAGTATCAATTAGTGCTAG", "log fluorescence": "0.626 z-score"}
{"Oligonucleotide": "TTAGGTCTCGCTTTCGGTTAGTGCTAG", "log fluorescence": "6.49 z-score"}
{"Oligonucleotide": "GACGGACTGGGGACTGGGCACGTGCTA", "log fluorescence": "-0.946 z-score"}
{"Oligonucleotide": "CTTCCACTTAGGGTGGCTGGGTGCTAG", "log fluorescence": "0.853 z-score"}
{"Oligonucleotide": "GACGGTCTCCTTATCCTGTCGTGCTAG", "log fluorescence": "0.656 z-score"}
{"Oligonucleotide": "GACGGTCTCGTTTTCGGGACGTGCTAG", "log fluorescence": "6.08 z-score"}
{"Oligonucleotide": "GAGGGTTTCGGTATCGGGACGTGCTAG", "log fluorescence": "7.95 z-score"}
{"Oligonucleotide": "TTAGGACTGCTTTTCGTTTAGTGCTAG", "log fluorescence": "2.14 z-score"}
{"Oligonucleotide": "ACACTCTTCTTTTGCTAATTGTGCTAG", "log fluorescence": "1.08 z-score"}
{"Oligonucleotide": "TCAAGTTGTACTTTCTAACTGTGCTAG", "log fluorescence": "0.234 z-score"}
{"Oligonucleotide": "TTAGGTCTCGGTTTCTGTTAGTGCTAG", "log fluorescence": "8.54 z-score"}
{"Oligonucleotide": "TCATCTTGCAGATGTCGCACTGTGCTA", "log fluorescence": "0.112 z-score"}
{"Oligonucleotide": "GACGATTTCAGACTGGGGACGTGCTAG", "log fluorescence": "0.174 z-score"}
{"Oligonucleotide": "TTAGAACTGAGTTTCGTTTAGTGCTAG", "log fluorescence": "8.29 z-score"}
{"Oligonucleotide": "TTAGATCCCAGTTTCGATTAGTGCTAG", "log fluorescence": "8.69 z-score"}
{"data": "Series 2", "target": "RING finger protein unkempt homolog, zinc fingers 1-6, GST-SBP tag (UNK, Homo sapiens, UniProt Q9C0B0, residues 30-357)", "method": "RNA Bind-n-Seq", "molecule type": "RNA", "sample": "in vitro", "tested at": "not given", "notes": "RNA with constant flanks, ends assumed", "reference": "input RNA pool", "direction": "higher = stronger binding", "all sequences stand within": "GGGAGUUCUACAGUCCGACGAUC … CAACAGAGGAUUGAGCAUCA", "Target sequence (chain)": "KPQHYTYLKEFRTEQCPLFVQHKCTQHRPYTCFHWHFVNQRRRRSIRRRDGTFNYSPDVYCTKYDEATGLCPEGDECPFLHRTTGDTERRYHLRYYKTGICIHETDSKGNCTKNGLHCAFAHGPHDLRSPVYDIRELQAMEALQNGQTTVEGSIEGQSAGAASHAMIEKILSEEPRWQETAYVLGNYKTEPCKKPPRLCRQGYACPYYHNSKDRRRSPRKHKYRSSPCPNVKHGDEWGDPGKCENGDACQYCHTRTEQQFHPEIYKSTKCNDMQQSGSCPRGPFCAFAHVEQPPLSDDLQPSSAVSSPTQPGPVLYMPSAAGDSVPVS"}
{"Oligonucleotide": "GACAGUGAAGGCCCACUGUGUGAAUUGCUUUUUUUCUUCCUGACUGCAAUCUUCCAGGCAACCGCUGAAGAAGAAGAGGAAGUAGCCAAAGAGCAACUAACUGAUGCUGACACCAAAGAU", "bound/input enrichment [ratio]": 0.0802}
{"Oligonucleotide": "AGCAAGAUCAUGUGCAUAUCAUCCCAUUGUAAAGCGACUUCAAAAAUAUGGGAACACAGUCCGUUAUUUUUACACAGUUCUUUUUGUUUUUGUGUGUGUGUGCUGUCGCUUGUCGACAAC", "bound/input enrichment [ratio]": 0.124}
{"Oligonucleotide": "CUUGACGAUGAUGAAUGUCCUUUACAAAUCUUCAGGGAAUGGCCAAGUGACAAAGGGAUUUCCGUCUUUCAGUUGAAGAGGAGACCACCGGACUACAUCCCAAAGAAAAUGAAGAAACAU", "bound/input enrichment [ratio]": 0.249}
{"Oligonucleotide": "AUAUUUCAUAUUGCAAAGAUGUUUACAAGUAUUUUAAUUUAAGUUCAGUGAACUUUUUUGCCGCUGGGUUAAAUCUUUUUAUUUUAGUAUGGCCUUAUGGCAAAGAACACUGUAUUAUUU", "bound/input enrichment [ratio]": 2.23}
{"Oligonucleotide": "CGGAAUUGGGAUGACAUGAAGCACCUGUGGGACUACACAUUUGGACCAGAGAAACUCAAUACCGACACCAGAAACUGCAAGAUUUUACUUACAGAACCUCCCAUGAAUCCAACCAAAAAC", "bound/input enrichment [ratio]": 0.286}
{"Oligonucleotide": "AUACCUUCCCAAAUUGGUAACCUGGAGGCCUUGAGAGACCUUAAUGUAAGAAGAAAUCACCCCGUACAUUUGCCUGAAGAGCUGGCGGAGUUGCCUUUGAUACGGUUAGACUUCUCAUGC", "bound/input enrichment [ratio]": 0.262}
{"Oligonucleotide": "CAGGGACUCUGGUGCCAAAUCCAGAAAGAUCUGCUCUGCUGCCCUGAACUCUUACGGCAAUUCCGGUUUCUCAUUUUUCUUUUCUUUUUACAUAUGUACAAAUUGUUUUAAGCUUUGGCC", "bound/input enrichment [ratio]": 0.508}
{"Oligonucleotide": "UGCUUCCUGGUCCUUAGAGGACUAAAAACAAGACCCUCAUUCCCACUUUCAUUUCCACUCCCGCAAAAACUGGGCUUGCGUUUUUCUCCAACUCCUCGUUUAUAUCCUCCCUUCCAUGUC", "bound/input enrichment [ratio]": 0.578}
{"Oligonucleotide": "AUGGAGGAGAACCAGCUAAAGAGCGAAAUGCAAGACGCCAAGGACCAGAACGAGCUGUCCGAAUUCAGAGUGCUAGAACUCGAAGUAAGAGACUCUAUCUGUUGUAAGCUCUCAAACGGA", "bound/input enrichment [ratio]": 0.117}
{"Oligonucleotide": "UCUGGCUACUGAUGCAGCACAAGAGACGUGUUUUUUUUUUAAAUGAGGAAAGACGCUGUUCCGGUUUGGUUUGGUUUCAUUUUAAUUACUCUAGGGAAAACACUGACGAAUGGUCAGCGC", "bound/input enrichment [ratio]": 0.49}
{"Oligonucleotide": "UUCUUAUACCUGGAUUUGGAAUUGAGUAUUCUUGAAAUGCCUAUAUUUGAGGAAGAUAAAUCCGGAGUUUAGAGAGCCAUAGUAAUACACUGAACGUUUCUUGUUAAAACUGUAACCUUG", "bound/input enrichment [ratio]": 2.57}
{"data": "Series 3", "target": "Protein C-ets-1 (ETS1, Homo sapiens, UniProt P14921, residues 1-441, Y397A, full length assumed)", "method": "protein-binding microarray", "molecule type": "double-stranded DNA, one strand shown", "sample": "in vitro", "tested at": "not given", "notes": "k-mer, scored over probes, only values ≥0.25", "direction": "higher = stronger binding", "Target sequence (chain)": "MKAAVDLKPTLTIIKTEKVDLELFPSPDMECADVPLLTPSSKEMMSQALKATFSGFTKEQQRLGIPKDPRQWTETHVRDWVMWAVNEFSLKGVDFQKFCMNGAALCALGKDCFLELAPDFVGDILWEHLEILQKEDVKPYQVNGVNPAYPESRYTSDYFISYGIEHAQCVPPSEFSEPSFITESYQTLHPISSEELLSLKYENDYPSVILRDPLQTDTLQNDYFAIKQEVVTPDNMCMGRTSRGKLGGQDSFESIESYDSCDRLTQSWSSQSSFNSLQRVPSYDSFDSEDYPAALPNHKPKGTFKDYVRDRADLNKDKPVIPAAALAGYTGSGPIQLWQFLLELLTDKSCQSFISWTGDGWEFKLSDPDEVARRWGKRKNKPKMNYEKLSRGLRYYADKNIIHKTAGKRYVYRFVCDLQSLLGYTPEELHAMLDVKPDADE"}
{"Oligonucleotide": "CAAATAAC", "E-score": 0.283}
{"Oligonucleotide": "CTACTTCC", "E-score": 0.352}
{"Oligonucleotide": "TACAAATA", "E-score": 0.293}
{"Oligonucleotide": "TATCCGGA", "E-score": 0.295}
{"Oligonucleotide": "GTTTGGCA", "E-score": 0.299}
{"Oligonucleotide": "AATTGGCG", "E-score": 0.364}
{"Oligonucleotide": "ATCGGAAG", "E-score": 0.309}
{"Oligonucleotide": "GACAAACA", "E-score": 0.305}
{"Oligonucleotide": "CAGACAAC", "E-score": 0.266}
{"Oligonucleotide": "CGACATTA", "E-score": 0.284}
{"Oligonucleotide": "CGCCAAAA", "E-score": 0.419}
{"Oligonucleotide": "CCCGGAAG", "E-score": 0.314}
{"Oligonucleotide": "AATTTGTA", "E-score": 0.294}
{"Oligonucleotide": "GCGACAAA", "E-score": 0.325}
{"Oligonucleotide": "TGGCGACA", "E-score": 0.283}
{"Oligonucleotide": "TATGTCAA", "E-score": 0.358}
{"Oligonucleotide": "AACCGGAA", "E-score": 0.327}
{"Oligonucleotide": "AAACGTCG", "E-score": 0.291}
{"Oligonucleotide": "GACAAATC", "E-score": 0.288}
{"Oligonucleotide": "CGACAACC", "E-score": 0.282}
{"data": "Series 4", "target": "Histone acetyltransferase KAT6A, both winged helices, GST fusion (KAT6A, Homo sapiens, UniProt Q92794, residues 1-181)", "method": "protein binding microarray", "molecule type": "double-stranded DNA, one strand shown", "sample": "in vitro", "tested at": "not given", "notes": "8-mer, flanks averaged, mean of 2 arrays, mostly near background", "reference": "not given", "direction": "higher = stronger binding", "Construct (chain)": "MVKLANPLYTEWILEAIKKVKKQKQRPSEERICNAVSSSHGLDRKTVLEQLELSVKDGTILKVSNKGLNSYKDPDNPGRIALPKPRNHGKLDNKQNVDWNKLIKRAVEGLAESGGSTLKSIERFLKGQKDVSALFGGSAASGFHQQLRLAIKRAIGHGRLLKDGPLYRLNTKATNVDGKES"}
{"Oligonucleotide": "AACTCCCG", "E-score": 0.179}
{"Oligonucleotide": "AGGCCCGC", "E-score": 0.224}
{"Oligonucleotide": "AGTTCCCC", "E-score": 0.0434}
{"Oligonucleotide": "GGACGCAA", "E-score": 0.0559}
{"Oligonucleotide": "GCGATTCA", "E-score": 0.192}
{"Oligonucleotide": "TAACACGA", "E-score": 0.061}
{"Oligonucleotide": "GTTGACAA", "E-score": 0.0192}
{"Oligonucleotide": "GCCACACC", "E-score": 0.0057}
{"Oligonucleotide": "CTAAACAG", "E-score": -0.0466}
{"Oligonucleotide": "GCCTGTCC", "E-score": -0.085}
{"Oligonucleotide": "GTTGAACA", "E-score": 0.0063}
{"Oligonucleotide": "CGGAACCG", "E-score": 0.248}
{"Oligonucleotide": "AAAATAGA", "E-score": -0.0672}
{"Oligonucleotide": "GTGAGTTA", "E-score": -0.0995}
{"Oligonucleotide": "ACAGCAGT", "E-score": -0.0745}
{"Oligonucleotide": "GCCTCCCA", "E-score": -0.218}
